Assay results of several laboratories.
Each numbered part is a random draw from the data of one study; scales do not carry over between parts.

Set 1 — method: universal PBM; form: double-stranded DNA, one strand shown; sample: in vitro; tested at: not given; reading: higher = stronger binding
Target: Sal-like protein 4, full length isoform B (SALL4, Homo sapiens, UniProt Q9UJQ4-2, residues 1-616)
Notes: 8-mer, flanks averaged, mean of replicates
Target sequence (chain): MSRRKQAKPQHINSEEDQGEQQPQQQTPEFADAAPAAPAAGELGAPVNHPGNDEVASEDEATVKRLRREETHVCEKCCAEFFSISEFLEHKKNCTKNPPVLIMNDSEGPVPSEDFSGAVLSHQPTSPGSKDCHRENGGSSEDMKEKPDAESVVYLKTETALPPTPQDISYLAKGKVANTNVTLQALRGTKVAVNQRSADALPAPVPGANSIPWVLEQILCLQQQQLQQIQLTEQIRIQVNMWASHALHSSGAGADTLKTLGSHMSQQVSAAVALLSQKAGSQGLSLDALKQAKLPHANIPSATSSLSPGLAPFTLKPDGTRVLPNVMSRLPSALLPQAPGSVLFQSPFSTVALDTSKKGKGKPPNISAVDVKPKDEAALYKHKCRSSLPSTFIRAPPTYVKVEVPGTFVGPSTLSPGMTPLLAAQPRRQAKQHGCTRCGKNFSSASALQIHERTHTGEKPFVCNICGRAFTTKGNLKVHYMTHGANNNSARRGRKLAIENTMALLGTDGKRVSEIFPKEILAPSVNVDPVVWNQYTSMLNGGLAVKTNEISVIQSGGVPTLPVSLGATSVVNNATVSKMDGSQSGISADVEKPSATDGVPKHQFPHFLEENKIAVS
Oligonucleotide	E-score
CTAAACTA	0.0384
ACTGATCT	0.0148
AAAGGTCG	0.122
CCGTAGAG	-0.249
CAATTCAG	0.0542
ATTGTGAG	0.177
CACCGGGG	-0.403
ACTTGGAA	0.0116
CAACTGAC	-0.111
GGGACGAC	-0.227
AATCCCGA	0.0189
CACCACCC	-0.217
ACCCTTTA	0.106
CCGAAGTA	-0.038
ATACGGCG	-0.0149
CCAACGCC	-0.138
CAGCAGCC	-0.227
CAACACTC	-0.103
ACAAACGA	0.149
CAGTCTAA	0.143

Set 2 — method: protein binding microarray; form: double-stranded DNA, one strand shown; sample: in vitro; tested at: not given; relative to: not given; reading: higher = stronger binding
Target: Histone acetyltransferase KAT6A, both winged helices, GST fusion (KAT6A, Homo sapiens, UniProt Q92794, residues 1-181)
Notes: 8-mer, flanks averaged, mean of 2 arrays, mostly near background
Target sequence (chain): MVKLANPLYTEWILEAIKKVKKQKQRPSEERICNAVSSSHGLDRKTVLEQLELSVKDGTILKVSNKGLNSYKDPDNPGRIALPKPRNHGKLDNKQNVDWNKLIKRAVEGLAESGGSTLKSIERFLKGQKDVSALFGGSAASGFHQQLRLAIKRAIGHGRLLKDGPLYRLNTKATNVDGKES
Oligonucleotide	E-score
GATAGGGA	-0.187
ATGCGAGA	-0.0401
ACCAAGTC	-0.0932
AGCACACC	-0.111
GAAGGGCC	-0.0237
ACAGCAGA	-0.0491
GGATTATA	-0.0439
ACCAACCT	-0.0331
CGCCATAC	0.0617
AGCGCAGG	0.229
AAGTGAAC	-0.211
CTTAGGGA	-0.108
CCCTGAGC	-0.0356
AACCTATA	-0.00259
GCGGCCCA	0.21
AAAAAAAG	-0.0577
CATCCTAC	-0.124
CGGGAGAC	0.262
AGCCATCG	-0.099
ATCCTAGA	0.0328
ACGGCGAG	0.24
GAATTTCC	0.0102
GGCGTCTA	0.167
CTGCTCGC	0.0786
GCGTTAAA	0.124

Set 3 — method: RNA Bind-n-Seq; form: RNA; sample: in vitro; tested at: 100 nM; relative to: input RNA pool; reading: higher = stronger binding
Target: RING finger protein unkempt homolog, zinc fingers 1-6, SBP tag (UNK, Homo sapiens, UniProt Q9C0B0, residues 30-357)
UniProt Q9C0B0, sequence (30-357, looked up): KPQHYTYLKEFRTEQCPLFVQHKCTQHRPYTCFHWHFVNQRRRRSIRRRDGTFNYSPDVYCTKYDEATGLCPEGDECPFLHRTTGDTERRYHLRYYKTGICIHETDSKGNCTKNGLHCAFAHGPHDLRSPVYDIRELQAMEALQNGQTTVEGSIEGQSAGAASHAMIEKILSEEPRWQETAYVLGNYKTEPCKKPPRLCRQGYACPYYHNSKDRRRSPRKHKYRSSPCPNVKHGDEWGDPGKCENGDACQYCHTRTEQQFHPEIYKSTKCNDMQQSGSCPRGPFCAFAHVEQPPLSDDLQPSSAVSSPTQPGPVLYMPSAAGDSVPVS
Notes: RNA with constant flanks, vertebrate orthologous sites, ends assumed
Shared flanks, not repeated: GGGAGUUCUACAGUCCGACGAUC … CAACAGAGGAUUGAGCAUCA
Oligonucleotide	bound/input enrichment [ratio]
UCUGCCUAGCGAUUAGAGUGGGUUCUCCCCCUCGUCCUGUCACAAGGAAGAAAGCUCAAAUAGGUUCUUUACACAUCGGAUUAUGCUGUUCUGUUUCCGUUUUCUAUAUUCACAUAUACA	0.506
UUUUUACAAUCUUCUACUUAAACUGGUAUUUUCAAACAAUAGGAAAGUUUUUUUUUACAGUUUAGUAUCUGGUUUCUACAUGGAAGACUAAACUCAUGCUUAUAGCUAAAUGUGGUCUUU	0.38
UUUUAUUGAUCAGGUCUGUAAAUGUGUACUAGAAUAAUCAGAGUUUAUUUAUAAAUACAAUAGCUUAUUUAAAGAGGUAUUUUCCUCCUUGCUAUCAUGGUAUGCAUAAUUCUGUGUGUU	0.488
CAGCGGAUUCUCUAAUAGGGAGAGCUGCACACAUUGCUGUUCUUGAUUCAGAAAUAUUUUUAGAAAAGUUCUUUCUGGUUGCUGCCCUAAAAUAUUUCCAGUAGAAGAAAAGCAUUGUAA	0.575
UCUUUGUAUUUCCUUUAUUUCUACCUUCCUUAUUUUUUUUUCUUUUUCUUUUAUUUUUGGUAGUAGUUGUUACCCACGCCAUUUUACGUCUCCUUCACUGAAGGGCUAGAGUUUUAACUU	2.93
CUCUACGGGCCCCGCAAAGUUGAGAUCAUUGAAGAGGAAGCGGAACAAUAAUCUACAUUUGGGUAUUUCUGACUAGGUGUGAAAUAAAUGUUUGUUGAUCAUUUCUUAACCAGAGCUUUA	0.423
GGAAAGUUACAGAUCAGACACUGAAAGUAGGAGCACAGGAUCCUGGCUGUCAUCCUCUUUGAGGAAUAGAUGUACACCUCUCUUUUCCAGAAGAAGAAGAGAAGGGAGAGAUGAAUCCGC	0.416
UAUAAUUAUGAAAAUCUAAAGGAUUUUUAAUGUUUAAUUUCCCCUGGCAUAUUAAGACAUCUUUUUUCCAGGCAGAUCACUCAGUGUGUGAGUGUGUGUACACAUGUUACAAAGACAACU	0.144
CAUCUCUCAUUUUAUAUGUCCAAAAAUGACUUUGAAUUUUAAGCAGUUACUAGUUUUAAUUAGCUCUGCCCUCAUGAAGUGUUACUGUAAUUCACCAUAACCAGAUAUCUGUCUGAAUUU	0.787
CUCUAUGGGCCUCGAAGAGUGGAAGUCAUGGAAGAGGAAAGUGAACAGUAAUCUUCAUUUUAGUAUUUAUGCUUAGGUGUGAAAUAAAUGUUUUUGUCGAUCUCUUCUAUAAUCCAGGGC	0.387
UGUACUAGCGUCAUACCAGCAUAUUACCUAUUUAAACUAUGUGCACAGCUUAAAAAAGUUUAGUUUUUCUUUUUGAGGAAAAGGAAAAACAUUUCACCCGGAUUCUAAAUGAAGCUACAU	1.01

Set 4 — method: RNA Bind-n-Seq; form: RNA; sample: in vitro; tested at: 1 µM; notes: whole 134-nt RNA, ends assumed; with: 150 mM KCl; relative to: input library; reading: higher = stronger binding
Target: Ras GTPase-activating protein-binding protein 1, RRM domain (G3BP1, Homo sapiens, UniProt Q13283)
UniProt Q13283, sequence (whole entry, looked up): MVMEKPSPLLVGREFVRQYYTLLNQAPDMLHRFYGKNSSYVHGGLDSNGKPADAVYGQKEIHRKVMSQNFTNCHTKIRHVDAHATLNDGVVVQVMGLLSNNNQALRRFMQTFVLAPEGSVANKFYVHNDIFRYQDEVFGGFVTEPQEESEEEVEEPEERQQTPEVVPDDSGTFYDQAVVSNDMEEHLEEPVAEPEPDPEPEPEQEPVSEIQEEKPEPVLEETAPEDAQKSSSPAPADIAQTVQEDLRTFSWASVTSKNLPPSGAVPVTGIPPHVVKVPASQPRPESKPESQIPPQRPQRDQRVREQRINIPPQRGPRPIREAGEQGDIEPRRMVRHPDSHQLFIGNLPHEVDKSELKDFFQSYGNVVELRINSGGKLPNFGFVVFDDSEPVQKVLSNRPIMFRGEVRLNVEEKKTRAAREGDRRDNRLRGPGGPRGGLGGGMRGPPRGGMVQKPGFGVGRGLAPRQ
Shared flanks, not repeated: GGGAGUUCUACAGUCCGACGAUC … UGGAAUUCUCGGGUGUCAAGG
Oligonucleotide	log2 enrichment
UCAAGUCCUGUGCUACACAUCGUAUGUACCGAAUCGGGGCCGGGGCCGGGGCCGGAAAGUAUUAUGUUACGCCGUUCGGAUCUGCACUUC	-1.75
CUCAAGUCCUGUGCUACACAUCGUAUGUACCGAAUCGGGGCCGGCCGGCCGGGAAAGUAUUAUGUUACGCCGUUCGGAUCUGCACUUCCA	-0.509
CACAGACAACACGCACCCACACAGACACAGAGGGAAGGGGUUGGGAUGGGGACAGGGUCCACAGCAGGGCGGGGUAGGACCCCAGCCCCU	-0.0854
AAGUCCUGUGCUACACAUCGUAUGUACCGAAUCGGUUUGGAAAAAAAGGUUUUUGGAAAGUAUUAUGUUACGCCGUUCGGAUCUGCACUU	-0.326
ACCAUGCAGGUGGGCAUCUUAGGGAAGUGGGGCAAGGGGGGGAUAGGGAGGGGGGUAACACUUUGGGAACAGGUGGUCCCAGGUCGUUUC	-0.432
UUGCUAAUCUAUAAAUUUUUUUUAUAUGAAAUAGCUCAUAGUCGGAAGCCGGCACCCUCAAAUGAGCCCGAAUAUCUAUGUAAAUGGAUG	-1.32
UGGGAGGUGGAUUUUGUUUAUUUUUUUAGCGCAUUUCCAGGGGUGGGAAUUUUUUUUUAAUAUGUGUCAUGAAUAAAGUUGUUUUUGAAA	2.21
CCUGUGCUACACAUCGUAUGUACCGAAUCGGGGAAAAAAGGGAAAAAAGGGAAAAAAGGGAAAGUAUUAUGUUACGCCGUUCGGAUCUGC	0.00342
UGGGAGGUGGAUUUUGUUUAUUUUUUUAGCUCAUCUCCAGGGGUGGGAAUUUUUUUUUAAUAUGUGUCAUGAAUAAAGUUGUUUUUGAAA	2.02
AGCAUGCAGGUGGGCAUCUUUGGGAAGUGGGGCAAGGGGGGGAUAGGGAGGGGGGUAACACUUUGGGAACAGGUGGUCCCAGGUCGUUUC	-0.566
UCAAGUCCUGUGCUACACAUCGUAUGUACCGAAUCGGGAAGGGAAGGGGAAGGGAAAGUAUUAUGUUACGCCGUUCGGAUCUGCACUUCC	0.97
CUGUGCUACACAUCGUAUGUACCGAAUCGGCCCCCCCGGGGCCCCCCCGGGGCCCCCCCGGAAAGUAUUAUGUUACGCCGUUCGGAUCUG	-0.519
CUGUGCUACACAUCGUAUGUACCGAAUCGGGGAAAAAAAGGAAAAAAAGGAAAAAAAGGGGAAAGUAUUAUGUUACGCCGUUCGGAUCUG	0.0202
GUCCUGUGCUACACAUCGUAUGUACCGAAUCGGAAAAAAGGGAAAAAAGGAAAAAAGGGAAAGUAUUAUGUUACGCCGUUCGGAUCUGCA	0.0311

Set 5 — method: RNA Bind-n-Seq; form: RNA; sample: in vitro; tested at: 365 nM; relative to: no-protein control; reading: higher = stronger binding
Target: RNA binding protein fox-1 homolog 2, RRM domain, GST-SBP tag (RBFOX2, Homo sapiens, UniProt O43251-10, residues 100-194)
Notes: natural RNA segment, single round, ends assumed
Shared flanks, not repeated: GGGAGUUCUACAGUCCGACGAUC … UGGAAUUCUCGGGUGCCAA
Target sequence (chain): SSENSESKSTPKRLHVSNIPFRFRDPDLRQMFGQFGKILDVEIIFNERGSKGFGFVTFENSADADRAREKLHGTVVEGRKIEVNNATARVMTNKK
Oligonucleotide	RBNS enrichment (R)
CACUAAAGGUUUCUUUAUUAGUUCUCCAGUUAAACCUAGAUCCCUCCCUGGUAGAUUGCGAACUCAAAGUUUUGUGAUCCCAAAGCCAUUCCACUGCAAAUGCCCAGCAG	0.436
ACCUUUCCAAAACAUCGCGAGAGCAUACAUAGACAAAAAUGAAAUAGAAAGCUCUUGCAUGCUUGAGUCCACCAUUGGGGGAAAUGACAGAAAACUGGACCUGAGGGCAU	1.57
GCCUAAUAUUCAUCAGCCUUCAUUACUCUCUAGCAUAUUCACCUUGAUUCAACAGAUUCAAACUUCCUACAGCCUUCUACUGAUGUCUUACAAGCUCUUGCCUCUGUGCC	1.4
AGAAAGUGGGUUUGGAACGUAUGGUUUGGAAUUGCUUGUCAGACUCUGAAGAAGAUGUGUUUCAGCUUGGGAUUACAAACCCCAUUUAUAAUUUUUAAAUAUACUUGAAA	1.06
CCAGGCAGAGUAUAAAAGCAAUCUAUAUAUCAUUAAGCUGUGGAAGCUACAUUGGCAGCAGCGAAUGUUGCAGCUUCUUGUGCAAGUACACCCUUCAUGGAAGUGUUGAC	0.393
GCAACCAGAAAGGGUGUCUGGGAUAUGAGCAGAUGUGGCAUCUUCCAGAAAUGAUCAUCUGGUUAUGGAAUGAAGGGACCUGUUCUCAAGCAAAGGUCAUCACAGUGACC	0.832
AUCUUCACUACCAUUCGCCCUUUCUGCUGAAGGAAUGGUGACGUGUUCCCAGGAGAACUGGGAGGCACAGGAUUCCCAGCACCCUUGCUGCCUCAUUGGGGAAGUUGGCC	0.293
AUACUUGUUUUCCCCAGAUGAGGCACUUGGUGAAUAAAGGAUGCUGGGAAAACUGUGUGUUAUAUUCUGUUGCAGGUAGUCUGGCUGUAUUUGGAAAGUUGCAAAGAAGG	1.42
UUUAGAACGGAUUUCUCAGGUAUAGGGAGUUGAUUUCUUAAUACUUUUUGAAUUAUGAAAAAUAGCAAUAUUAAAAUUUAUAAUUGAGGAAUUUAUAGAAAGAUGACAUG	0.543
GGCUGACAAAUUAGUCAUUGCUUAAACACAGUUCAUGCAGAUUAAACACAAAUCAAGUUCCAAAUUUCAUUGGACUCCACUUGAAGACCAUGAGAAAAUAGCUUGGUCUG	0.291
AUUAGUGCGAGGCAAACAUAACUCAUUUGAGGAUAAAGUUUGUGUUGGAUAUGUGGUUCCUGAUGCAUUUUGACUUGUCUUUUUAAAUGCUUUAUCUUUUUCUUUAAAGA	1.1
UUGUCUCUUCUGUAAAAAUCCAACAUUAGGUAGAACUUGCUGUAAUUUAAAAGUCACAAAGUCAUUUAUAAAAAAUGAAGUGAUUAAAUAUUGACCGAGUAUUGUUGAGU	0.919
